# Experimental data of several laboratories.
# Every numbered part comes from another study and shows a few of its results, in no order. Several values in a cell are separate wells, animals, samples, runs or records.
# Chain of UniProt O95819 (whole entry, looked up): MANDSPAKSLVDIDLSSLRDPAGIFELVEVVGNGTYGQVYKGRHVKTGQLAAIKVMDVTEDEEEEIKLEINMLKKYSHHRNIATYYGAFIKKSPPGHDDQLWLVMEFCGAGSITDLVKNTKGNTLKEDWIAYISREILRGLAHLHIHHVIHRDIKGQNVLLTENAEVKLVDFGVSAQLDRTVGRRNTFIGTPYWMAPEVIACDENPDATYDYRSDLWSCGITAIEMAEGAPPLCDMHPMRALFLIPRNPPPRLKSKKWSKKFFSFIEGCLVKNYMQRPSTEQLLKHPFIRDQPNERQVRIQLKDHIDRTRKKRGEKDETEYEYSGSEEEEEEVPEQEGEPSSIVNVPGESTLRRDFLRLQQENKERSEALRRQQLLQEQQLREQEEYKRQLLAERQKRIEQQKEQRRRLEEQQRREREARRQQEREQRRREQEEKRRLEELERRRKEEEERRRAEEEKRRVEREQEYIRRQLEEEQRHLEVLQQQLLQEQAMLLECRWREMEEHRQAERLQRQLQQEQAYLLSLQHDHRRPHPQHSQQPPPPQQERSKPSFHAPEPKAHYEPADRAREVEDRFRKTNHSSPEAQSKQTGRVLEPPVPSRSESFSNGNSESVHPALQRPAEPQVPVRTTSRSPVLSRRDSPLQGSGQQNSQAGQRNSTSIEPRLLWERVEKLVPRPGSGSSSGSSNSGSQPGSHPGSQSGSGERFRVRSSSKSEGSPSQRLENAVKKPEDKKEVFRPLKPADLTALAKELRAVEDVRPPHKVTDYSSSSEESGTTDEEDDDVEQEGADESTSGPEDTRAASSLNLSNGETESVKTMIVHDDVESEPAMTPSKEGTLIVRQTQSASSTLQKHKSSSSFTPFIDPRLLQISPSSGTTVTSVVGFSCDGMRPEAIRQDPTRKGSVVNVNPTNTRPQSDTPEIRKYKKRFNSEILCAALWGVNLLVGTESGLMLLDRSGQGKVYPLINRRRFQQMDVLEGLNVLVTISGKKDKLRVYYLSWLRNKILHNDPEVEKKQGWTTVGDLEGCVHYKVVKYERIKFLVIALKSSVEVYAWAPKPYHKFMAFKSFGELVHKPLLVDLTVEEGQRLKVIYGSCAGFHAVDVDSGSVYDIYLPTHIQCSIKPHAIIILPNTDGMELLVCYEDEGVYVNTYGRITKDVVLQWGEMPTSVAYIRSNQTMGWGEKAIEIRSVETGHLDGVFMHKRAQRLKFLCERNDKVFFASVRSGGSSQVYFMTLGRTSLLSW
# Chain of UniProt P19784 (whole entry, looked up): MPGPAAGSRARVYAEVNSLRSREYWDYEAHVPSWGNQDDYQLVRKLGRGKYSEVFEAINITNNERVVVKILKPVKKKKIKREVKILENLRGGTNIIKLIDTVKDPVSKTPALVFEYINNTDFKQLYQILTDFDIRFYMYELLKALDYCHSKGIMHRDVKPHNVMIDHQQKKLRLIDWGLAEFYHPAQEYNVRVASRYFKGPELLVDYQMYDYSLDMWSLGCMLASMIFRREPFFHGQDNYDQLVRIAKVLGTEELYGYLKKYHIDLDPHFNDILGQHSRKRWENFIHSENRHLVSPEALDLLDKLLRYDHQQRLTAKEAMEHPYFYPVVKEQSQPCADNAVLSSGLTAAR
# Chain of UniProt Q15759 (whole entry, looked up): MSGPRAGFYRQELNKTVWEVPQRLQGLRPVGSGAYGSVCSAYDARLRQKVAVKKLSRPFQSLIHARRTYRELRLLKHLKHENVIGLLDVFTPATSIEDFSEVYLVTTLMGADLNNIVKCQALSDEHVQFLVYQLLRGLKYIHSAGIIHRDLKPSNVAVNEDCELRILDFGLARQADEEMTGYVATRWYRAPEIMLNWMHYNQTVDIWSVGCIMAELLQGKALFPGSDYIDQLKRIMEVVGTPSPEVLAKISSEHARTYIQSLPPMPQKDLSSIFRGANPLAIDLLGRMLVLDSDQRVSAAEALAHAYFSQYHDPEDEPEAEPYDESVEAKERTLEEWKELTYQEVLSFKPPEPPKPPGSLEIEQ
# Chain of UniProt Q96PF2 (whole entry, looked up): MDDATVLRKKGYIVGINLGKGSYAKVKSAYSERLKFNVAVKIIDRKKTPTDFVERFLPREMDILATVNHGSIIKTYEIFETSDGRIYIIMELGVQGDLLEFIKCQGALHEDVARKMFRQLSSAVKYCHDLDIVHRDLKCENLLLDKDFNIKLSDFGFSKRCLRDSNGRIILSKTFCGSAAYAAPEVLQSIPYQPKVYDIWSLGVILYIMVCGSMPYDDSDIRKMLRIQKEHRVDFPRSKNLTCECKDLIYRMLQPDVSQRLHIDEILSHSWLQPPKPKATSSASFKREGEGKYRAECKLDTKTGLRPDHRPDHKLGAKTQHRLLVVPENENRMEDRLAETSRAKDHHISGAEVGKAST
# Chain of UniProt Q92630 (whole entry, looked up): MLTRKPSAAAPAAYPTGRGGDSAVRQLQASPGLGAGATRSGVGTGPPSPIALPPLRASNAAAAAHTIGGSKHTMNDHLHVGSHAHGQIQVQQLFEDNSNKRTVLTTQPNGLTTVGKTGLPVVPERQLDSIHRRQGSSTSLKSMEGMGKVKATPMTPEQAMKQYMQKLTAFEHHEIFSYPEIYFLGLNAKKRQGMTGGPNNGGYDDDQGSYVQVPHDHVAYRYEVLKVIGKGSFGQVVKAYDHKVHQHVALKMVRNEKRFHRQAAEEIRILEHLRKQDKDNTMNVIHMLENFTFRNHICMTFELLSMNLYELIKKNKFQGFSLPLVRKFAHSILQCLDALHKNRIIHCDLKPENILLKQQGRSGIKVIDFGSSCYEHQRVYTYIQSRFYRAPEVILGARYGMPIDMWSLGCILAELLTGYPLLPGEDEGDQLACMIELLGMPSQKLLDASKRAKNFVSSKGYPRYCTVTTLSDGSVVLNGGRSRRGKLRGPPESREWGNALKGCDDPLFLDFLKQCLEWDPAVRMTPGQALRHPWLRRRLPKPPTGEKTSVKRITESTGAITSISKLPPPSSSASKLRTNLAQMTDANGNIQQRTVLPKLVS
# Chain of UniProt O15530 (whole entry, looked up): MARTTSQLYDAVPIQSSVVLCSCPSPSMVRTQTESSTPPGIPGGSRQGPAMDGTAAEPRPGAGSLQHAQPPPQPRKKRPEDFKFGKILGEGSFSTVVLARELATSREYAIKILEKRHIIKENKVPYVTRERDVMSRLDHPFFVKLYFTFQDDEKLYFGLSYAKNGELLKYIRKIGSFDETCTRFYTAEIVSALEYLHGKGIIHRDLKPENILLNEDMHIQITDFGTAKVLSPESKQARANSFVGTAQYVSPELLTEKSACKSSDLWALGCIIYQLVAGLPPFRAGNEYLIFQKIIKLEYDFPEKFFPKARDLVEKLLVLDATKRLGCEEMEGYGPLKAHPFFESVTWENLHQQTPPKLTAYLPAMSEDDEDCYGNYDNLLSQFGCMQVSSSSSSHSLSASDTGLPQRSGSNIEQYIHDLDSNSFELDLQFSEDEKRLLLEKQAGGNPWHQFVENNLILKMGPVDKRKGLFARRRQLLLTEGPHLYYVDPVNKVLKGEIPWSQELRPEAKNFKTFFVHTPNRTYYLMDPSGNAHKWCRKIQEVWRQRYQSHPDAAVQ
# Chain of UniProt Q16644 (whole entry, looked up): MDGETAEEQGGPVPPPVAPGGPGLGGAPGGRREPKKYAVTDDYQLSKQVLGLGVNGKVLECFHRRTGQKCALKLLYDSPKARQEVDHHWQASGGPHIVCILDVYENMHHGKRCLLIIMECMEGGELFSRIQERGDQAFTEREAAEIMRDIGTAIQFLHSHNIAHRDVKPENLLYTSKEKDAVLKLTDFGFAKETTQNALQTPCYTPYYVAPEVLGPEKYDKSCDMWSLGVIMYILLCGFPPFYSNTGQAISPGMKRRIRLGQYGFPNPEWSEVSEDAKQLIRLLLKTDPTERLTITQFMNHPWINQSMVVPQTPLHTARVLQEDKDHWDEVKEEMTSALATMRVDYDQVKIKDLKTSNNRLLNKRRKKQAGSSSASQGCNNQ
# Chain of UniProt Q13554 (whole entry, looked up): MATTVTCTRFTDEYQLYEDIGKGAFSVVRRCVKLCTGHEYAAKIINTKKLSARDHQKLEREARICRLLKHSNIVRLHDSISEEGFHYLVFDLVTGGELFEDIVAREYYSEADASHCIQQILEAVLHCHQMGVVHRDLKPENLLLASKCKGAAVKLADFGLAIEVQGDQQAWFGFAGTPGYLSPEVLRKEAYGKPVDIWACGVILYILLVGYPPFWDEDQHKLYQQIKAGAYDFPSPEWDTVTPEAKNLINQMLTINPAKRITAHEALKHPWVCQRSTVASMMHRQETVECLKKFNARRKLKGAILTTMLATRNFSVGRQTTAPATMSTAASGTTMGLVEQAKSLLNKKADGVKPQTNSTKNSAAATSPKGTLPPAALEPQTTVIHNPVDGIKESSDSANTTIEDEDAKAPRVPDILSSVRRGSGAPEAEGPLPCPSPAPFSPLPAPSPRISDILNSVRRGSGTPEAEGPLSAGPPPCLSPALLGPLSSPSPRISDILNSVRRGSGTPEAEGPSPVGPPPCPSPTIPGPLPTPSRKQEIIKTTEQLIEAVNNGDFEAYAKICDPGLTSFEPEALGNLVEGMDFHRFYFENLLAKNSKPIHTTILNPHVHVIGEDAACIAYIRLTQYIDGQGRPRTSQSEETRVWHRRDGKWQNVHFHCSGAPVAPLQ
# Chain of UniProt O43293 (whole entry, looked up): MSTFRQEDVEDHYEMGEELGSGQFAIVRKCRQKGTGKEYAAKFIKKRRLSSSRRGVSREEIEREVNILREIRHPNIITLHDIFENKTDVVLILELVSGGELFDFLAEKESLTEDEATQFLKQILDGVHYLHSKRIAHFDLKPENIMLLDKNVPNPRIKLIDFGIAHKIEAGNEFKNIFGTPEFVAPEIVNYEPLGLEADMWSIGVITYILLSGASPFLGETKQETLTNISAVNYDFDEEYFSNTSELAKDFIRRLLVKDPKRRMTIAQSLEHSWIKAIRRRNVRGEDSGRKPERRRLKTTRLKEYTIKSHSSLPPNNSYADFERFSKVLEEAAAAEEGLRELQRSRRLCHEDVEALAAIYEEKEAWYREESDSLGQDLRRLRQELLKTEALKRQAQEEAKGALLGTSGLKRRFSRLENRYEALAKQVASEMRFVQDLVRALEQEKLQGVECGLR

# Series 1
# Structure (SMILES): Cc1ccc(NC(=O)c2ccc(CN3CCN(C)CC3)cc2)cc1Nc1nccc(-c2cccnc2)n1
# Effect on: enzyme activity
# Action: inhibitor
# Concentration: 0.5 µM
# Relative to: control
target,remaining activity
"EPHB1 (Homo sapiens, UniProt P54762)",102%
"Cyclin-dependent kinase 1, with cyclin B (CDK1, Homo sapiens, UniProt P06493)",103%
"PRKACG (Homo sapiens, UniProt P22612)",106%
"MAP4K4 (Homo sapiens, UniProt O95819)",99.8%
"PDPK1 (Homo sapiens, UniProt O15530)",95.2%
"TSSK2 (Homo sapiens, UniProt Q96PF2)",100%
"DYRK3 (Homo sapiens, UniProt O43781)",96.4%
"WNK3 (Homo sapiens, UniProt Q9BYP7)",99.4%
"STK16 (Homo sapiens, UniProt O75716)",103%
"CAMK2B (Homo sapiens, UniProt Q13554)",97.6%
"MAPKAPK3 (Homo sapiens, UniProt Q16644)",97.8%

# Series 2
# Compound: CCCOc1ccc([C@@H]2[C@@H](C(=O)O)[C@H](c3ccc4c(c3)OCO4)CN2CC(=O)Nc2c(CC)cccc2CC)cc1
# Effect on: cell-free assay
# Method: competition with immobilised ligand
# Concentration: 1 µM
target,remaining binding
"TAOK1 (Homo sapiens, UniProt Q7L7X3)",100%
"MAPK11 (Homo sapiens, UniProt Q15759)",98%
"MARK2 (Homo sapiens, UniProt Q7KZI7)",92%
"PIKFYVE (Homo sapiens, UniProt Q9Y2I7)",91%
"DAPK3 (Homo sapiens, UniProt O43293)",79%
"PTK2B (Homo sapiens, UniProt Q14289)",97%
"MYLK2 (Homo sapiens, UniProt Q9H1R3)",93%
"CSNK2A2 (Homo sapiens, UniProt P19784)",83%
"ABL2 (Homo sapiens, UniProt P42684)",96%
"DYRK2 (Homo sapiens, UniProt Q92630)",92%
"CDK17 (Homo sapiens, UniProt Q00537)",90%
"SLK (Homo sapiens, UniProt Q9H2G2)",100%
"NIM1K (Homo sapiens, UniProt Q8IY84)",81%
"PLK3 (Homo sapiens, UniProt Q9H4B4)",88%
"NUAK2 (Homo sapiens, UniProt Q9H093)",73%

# Series 3
# Cell line: mouse MPNST tumor cells
# Method: high-content immunofluorescence imaging
# Measured: nuclear SOX9
# Concentration: 10 µM
# Time: 12 h
# Setting: mean of 2 replicates
# Relative to: DMSO control
# Direction: higher = more nuclear SOX9
Compound,nuclear SOX9 intensity
CCN1C(C)(C)CC(Oc2ccc(C(=O)Nc3ccc(NC(=O)Nc4cc(C(C)(C)C)on4)cc3)nc2)CC1(C)C,136 % of DMSO
COc1ccc(CCCn2ncc3c2nc(N)n2nc(-c4ccco4)nc32)cc1,104 % of DMSO
CC(=O)OCC(=O)[C@@]12OC3(CCCC3)O[C@@H]1C[C@H]1[C@@H]3CCC4=CC(=O)C=C[C@]4(C)[C@@]3(F)[C@@H](O)C[C@@]12C,77.2 % of DMSO
N#Cc1cnc2cnc(NCc3cccnc3)cc2c1Nc1ccc(F)c(Cl)c1,83.2 % of DMSO
COc1cc2c(cc1OCCCN1CCCC1)N=C(N)C21CCC1,131 % of DMSO and 145 % of DMSO
COc1cc(C(C)=O)ccc1O,97.6 % of DMSO

# Series 4
# Structure (SMILES): CC(C)C[C@@H]1NC(=O)[C@@H](N(C)C(=O)[C@H](CC2CCC2)NC(=O)[C@@H]2C[C@@H](F)CN2C(=O)C2(C(F)(F)F)CC(F)(F)C2)CCCCNC(=O)C2(CC2)NC(=O)[C@H](Cc2cc(Cl)ccc2Cl)N(C)C1=O
# Relative to: DMSO
cell line,method,concentration,time,setting,together with,cell count
NCI-H446,Vi-Cell counting,2 nM,3 days,,Mps1 inhibitor 3 nM,0.853 and 0.921
"Jurkat, doxycycline-inducible E2F1",,600 nM,6 days,doxycycline added,,0.174 and 0.258 and 0.168
"Jurkat, doxycycline-inducible E2F1",,200 nM,6 days,doxycycline added,,0.333 and 0.229 and 0.261
NCI-H446,Vi-Cell counting,60 nM,3 days,,Mps1 inhibitor 3 nM,0.641 and 0.632

# Excerpt of the above (series 1):
target,remaining activity
"Cyclin-dependent kinase 1, with cyclin B (CDK1, Homo sapiens, UniProt P06493)",103%
"PRKACG (Homo sapiens, UniProt P22612)",106%
"MAP4K4 (Homo sapiens, UniProt O95819)",99.8%
"PDPK1 (Homo sapiens, UniProt O15530)",95.2%
"TSSK2 (Homo sapiens, UniProt Q96PF2)",100%
